Measurements of several laboratories.
Lines come from different studies, so protocols differ.
SMC6: SMC6 (Saccharomyces cerevisiae, UniProt Q12749)
UniProt Q12749, sequence (whole entry, looked up): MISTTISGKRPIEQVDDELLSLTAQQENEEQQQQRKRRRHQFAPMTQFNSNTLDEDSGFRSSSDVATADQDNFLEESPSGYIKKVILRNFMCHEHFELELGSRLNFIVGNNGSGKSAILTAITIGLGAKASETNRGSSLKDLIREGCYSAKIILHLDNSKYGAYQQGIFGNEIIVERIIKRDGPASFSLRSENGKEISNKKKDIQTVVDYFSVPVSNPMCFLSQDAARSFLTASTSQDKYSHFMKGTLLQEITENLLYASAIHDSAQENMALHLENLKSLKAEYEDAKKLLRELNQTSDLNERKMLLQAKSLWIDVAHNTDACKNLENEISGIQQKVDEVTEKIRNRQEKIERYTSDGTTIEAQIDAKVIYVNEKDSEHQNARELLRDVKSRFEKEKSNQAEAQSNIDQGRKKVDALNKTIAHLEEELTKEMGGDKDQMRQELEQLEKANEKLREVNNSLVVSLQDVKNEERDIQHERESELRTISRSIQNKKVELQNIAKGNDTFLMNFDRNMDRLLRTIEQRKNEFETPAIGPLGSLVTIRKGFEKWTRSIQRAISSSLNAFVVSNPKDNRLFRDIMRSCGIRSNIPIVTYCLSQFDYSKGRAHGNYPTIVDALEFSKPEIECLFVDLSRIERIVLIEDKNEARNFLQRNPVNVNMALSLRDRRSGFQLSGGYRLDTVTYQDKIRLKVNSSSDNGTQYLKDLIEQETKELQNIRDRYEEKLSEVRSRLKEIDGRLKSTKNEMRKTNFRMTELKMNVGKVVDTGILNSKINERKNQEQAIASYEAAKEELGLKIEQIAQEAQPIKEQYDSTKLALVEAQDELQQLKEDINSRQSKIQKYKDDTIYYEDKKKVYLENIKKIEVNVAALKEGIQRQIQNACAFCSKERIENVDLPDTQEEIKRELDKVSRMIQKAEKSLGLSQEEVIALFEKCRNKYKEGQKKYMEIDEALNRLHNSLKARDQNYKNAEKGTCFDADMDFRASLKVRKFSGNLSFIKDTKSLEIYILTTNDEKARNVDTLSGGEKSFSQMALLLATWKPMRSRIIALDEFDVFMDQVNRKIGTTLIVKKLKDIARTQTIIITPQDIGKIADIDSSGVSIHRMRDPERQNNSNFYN
CBX8: CBX8 (Homo sapiens, UniProt Q9HC52)
UniProt Q9HC52, sequence (whole entry, looked up): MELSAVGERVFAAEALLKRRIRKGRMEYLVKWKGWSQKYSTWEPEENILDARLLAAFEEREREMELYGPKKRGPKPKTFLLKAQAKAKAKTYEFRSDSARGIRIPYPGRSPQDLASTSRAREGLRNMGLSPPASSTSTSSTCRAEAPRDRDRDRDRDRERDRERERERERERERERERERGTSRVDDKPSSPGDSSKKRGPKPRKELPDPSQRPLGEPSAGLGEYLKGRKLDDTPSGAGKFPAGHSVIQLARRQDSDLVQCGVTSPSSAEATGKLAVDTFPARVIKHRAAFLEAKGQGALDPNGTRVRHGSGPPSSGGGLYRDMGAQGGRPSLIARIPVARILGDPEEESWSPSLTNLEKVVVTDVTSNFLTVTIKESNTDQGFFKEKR
B1: coatomer subunit beta', human; sequence looked up; chain PLRLDIKRKLTARSDRVKSVDLHPTEPWMLASLYNGSVCVWNHETQTLVKTFEVCDLPVRAAKFVARKNWVVTGADDMQIRVFNYNTLERVHMFEAHSDYIRCIAVHPTQPFILTSSDDMLIKLWDWDKKWSCSQVFEGHTHYVMQIVINPKDNNQFASASLDRTIKVWQLGSSSPNFTLEGHEKGVNCIDYYSGGDKPYLISGADDRLVKIWDYQNKTCVQTLEGHAQNVSCASFHPELPIIITGSEDGTVRIWHSSTYRLESTLNYGMERVWCVASLRGSNNVALGYDEGSIIVKLGREEPAMSMDANGKIIWAKHSEVQQANLKAMGDAEIKDGERLPLAVKDMGSCEIYPQTIQHNPNGRFVVVCGDGEYIIYTAMALRNKSFGSAQEFAWAHDSSEYAIRESNSIVKIFKNFKEKKSFKPDFGAESIYGGFLLGVRSVNGLAFYDWDNTELIRRIEIQPKHIFWSDSGELVCIATEESFFILKYLSEKVLAAQETHEGVTEDGIEDAFEVLGEIQEIVKTGLWVGDCFIYTSSVNRLNYYVGGEIVTIAHLDRTMYLLGYIPKDNRLYLGDKELNIISYSLLVSVLEYQTAVMRRDFSMADKVLPTIPKEQRTRVAHFLEKQGFKQQALTVSTDPEHRFELALQLGELKIAYQLAVEAESEQKWKQLAELAISKCQFGLAQECLHHAQDYGGLLLLATASGNANMVNKLAEGAERDGKNNVAFMSYFLQGKVDACLELLIRTGRLPEAAFLARTYLPSQVSRVVKLWRENLSKVNQKAAESLADPTEYENLFPGLKEAFVVEEWVKETHADLWPAKQYPLVTPNEERNVMEEGKDFQPSRSTAQQELDGKPASPTPVIVASHTANKEEKSLLELEVDLDNLELEDIDTTDINLDEDILDD
B2: ATP synthase subunit alpha, human; sequence looked up; chain QKTGTAEMSSILEERILGADTSVDLEETGRVLSIGDGIARVHGLRNVQAEEMVEFSSGLKGMSLNLEPDNVGVVVFGNDKLIKEGDIVKRTGAIVDVPVGEELLGRVVDALGNAIDGKGPIGSKTRRRVGLKAPGIIPRISVREPMQTGIKAVDSLVPIGRGQRELIIGDRQTGKTSIAIDTIINQKRFNDGSDEKKKLYCIYVAIGQKRSTVAQLVKRLTDADAMKYTIVVSATASDAAPLQYLAPYSGCSMGEYFRDNGKHALIIYDDLSKQAVAYRQMSLLLRRPPGREAYPGDVFYLHSRLLERAAKMNDAFGGGSLTALPVIETQAGDVSAYIPTNVISITDGQIFLETELFYKGIRPAINVGLSVSRVGSAAQTRAMKQVAGTMKLELAQYREVAAFAQFGSDLDAATQQLLSRGVRLTELLKQGQYSPMAIEEQVAVIYAGVRGYLDKLEPSKITKFENAFLSHVVSQHQALLGTIRADGKISEQSDAKLKEIVTNFLAGFEA
UniProt P35226, sequence (whole entry, looked up): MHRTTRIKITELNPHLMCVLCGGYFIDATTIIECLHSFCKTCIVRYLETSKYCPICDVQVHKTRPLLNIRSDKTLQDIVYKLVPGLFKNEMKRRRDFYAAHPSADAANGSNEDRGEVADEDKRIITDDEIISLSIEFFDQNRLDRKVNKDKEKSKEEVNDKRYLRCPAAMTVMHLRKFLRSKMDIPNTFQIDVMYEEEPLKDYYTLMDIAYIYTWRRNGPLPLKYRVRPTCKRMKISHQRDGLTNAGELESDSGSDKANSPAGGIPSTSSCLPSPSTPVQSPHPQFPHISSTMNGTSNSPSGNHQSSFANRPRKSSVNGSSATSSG
UniProt Q07913, sequence (whole entry, looked up): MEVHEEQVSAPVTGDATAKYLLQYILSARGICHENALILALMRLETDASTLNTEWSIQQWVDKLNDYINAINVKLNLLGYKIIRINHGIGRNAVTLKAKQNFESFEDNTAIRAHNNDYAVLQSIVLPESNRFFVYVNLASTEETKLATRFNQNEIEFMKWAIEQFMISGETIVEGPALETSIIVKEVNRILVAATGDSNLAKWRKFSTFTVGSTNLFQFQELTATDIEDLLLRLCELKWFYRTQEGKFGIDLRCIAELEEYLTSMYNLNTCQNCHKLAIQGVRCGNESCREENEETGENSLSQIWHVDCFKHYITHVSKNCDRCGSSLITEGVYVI
UniProt P38632, sequence (whole entry, looked up): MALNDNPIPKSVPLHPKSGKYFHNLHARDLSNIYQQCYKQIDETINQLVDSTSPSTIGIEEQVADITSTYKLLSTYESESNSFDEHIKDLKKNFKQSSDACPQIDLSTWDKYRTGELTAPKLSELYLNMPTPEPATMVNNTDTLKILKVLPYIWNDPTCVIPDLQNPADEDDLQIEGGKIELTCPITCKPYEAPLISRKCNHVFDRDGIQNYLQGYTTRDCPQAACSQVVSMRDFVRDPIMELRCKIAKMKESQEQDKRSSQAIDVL
UniProt P29496, sequence (whole entry, looked up): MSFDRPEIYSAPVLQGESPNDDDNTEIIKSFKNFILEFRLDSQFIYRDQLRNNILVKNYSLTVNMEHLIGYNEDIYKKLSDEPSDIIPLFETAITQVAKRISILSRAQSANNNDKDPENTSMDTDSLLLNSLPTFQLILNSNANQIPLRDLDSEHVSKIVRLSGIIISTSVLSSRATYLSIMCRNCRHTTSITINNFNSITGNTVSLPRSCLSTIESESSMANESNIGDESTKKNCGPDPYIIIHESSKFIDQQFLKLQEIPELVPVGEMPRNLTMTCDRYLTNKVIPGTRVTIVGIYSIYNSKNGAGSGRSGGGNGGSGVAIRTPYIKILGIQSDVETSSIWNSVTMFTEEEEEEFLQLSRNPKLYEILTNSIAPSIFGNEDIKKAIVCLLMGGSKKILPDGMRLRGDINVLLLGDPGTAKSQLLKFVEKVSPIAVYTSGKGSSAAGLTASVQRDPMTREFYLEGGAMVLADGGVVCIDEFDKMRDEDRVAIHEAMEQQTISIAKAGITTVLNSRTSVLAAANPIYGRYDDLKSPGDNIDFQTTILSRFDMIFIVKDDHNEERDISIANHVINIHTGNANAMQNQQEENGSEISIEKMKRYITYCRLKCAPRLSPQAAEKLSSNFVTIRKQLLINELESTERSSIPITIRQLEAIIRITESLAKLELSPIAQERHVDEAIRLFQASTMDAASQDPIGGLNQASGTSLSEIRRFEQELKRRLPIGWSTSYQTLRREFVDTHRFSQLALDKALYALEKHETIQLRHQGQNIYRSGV
UniProt Q12146, sequence (whole entry, looked up): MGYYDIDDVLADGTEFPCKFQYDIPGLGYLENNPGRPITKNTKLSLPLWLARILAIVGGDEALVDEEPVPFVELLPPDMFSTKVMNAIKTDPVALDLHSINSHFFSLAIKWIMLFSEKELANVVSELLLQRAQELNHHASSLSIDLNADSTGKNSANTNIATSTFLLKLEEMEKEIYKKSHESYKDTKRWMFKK
UniProt P40026, sequence (whole entry, looked up): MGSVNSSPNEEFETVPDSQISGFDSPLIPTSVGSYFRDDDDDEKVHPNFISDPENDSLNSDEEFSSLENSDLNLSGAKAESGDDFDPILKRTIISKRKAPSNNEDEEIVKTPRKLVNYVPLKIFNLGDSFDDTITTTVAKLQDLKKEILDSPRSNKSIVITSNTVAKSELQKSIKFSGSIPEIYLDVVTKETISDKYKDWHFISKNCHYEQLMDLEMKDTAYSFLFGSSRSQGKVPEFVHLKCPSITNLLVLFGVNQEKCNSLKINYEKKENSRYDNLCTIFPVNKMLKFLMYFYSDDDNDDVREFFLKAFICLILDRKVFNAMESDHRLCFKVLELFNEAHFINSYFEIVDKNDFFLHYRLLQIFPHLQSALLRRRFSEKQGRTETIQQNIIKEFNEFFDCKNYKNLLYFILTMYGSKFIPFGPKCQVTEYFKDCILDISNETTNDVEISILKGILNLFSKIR
UniProt Q03718, sequence (whole entry, looked up): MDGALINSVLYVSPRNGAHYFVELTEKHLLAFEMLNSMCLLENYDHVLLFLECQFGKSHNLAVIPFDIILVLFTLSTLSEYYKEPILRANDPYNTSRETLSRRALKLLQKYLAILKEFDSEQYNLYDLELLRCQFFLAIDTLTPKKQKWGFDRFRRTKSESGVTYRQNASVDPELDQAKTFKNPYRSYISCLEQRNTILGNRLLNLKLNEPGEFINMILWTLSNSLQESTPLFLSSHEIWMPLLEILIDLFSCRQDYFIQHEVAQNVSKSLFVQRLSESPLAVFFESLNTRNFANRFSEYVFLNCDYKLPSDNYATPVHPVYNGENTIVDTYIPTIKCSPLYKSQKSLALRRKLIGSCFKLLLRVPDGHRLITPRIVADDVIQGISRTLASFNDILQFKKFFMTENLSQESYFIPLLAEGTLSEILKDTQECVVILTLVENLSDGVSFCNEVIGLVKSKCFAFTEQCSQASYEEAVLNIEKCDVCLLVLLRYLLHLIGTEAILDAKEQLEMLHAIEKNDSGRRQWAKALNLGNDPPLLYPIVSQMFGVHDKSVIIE

MCM5 (Saccharomyces cerevisiae, UniProt P29496) — interaction screen (PSF3 (Saccharomyces cerevisiae, UniProt Q12146); cross-linking MS; hits only): cross-linked
colistin — MIC (Citrobacter freundii; clinical isolate RKI 604/16): ≤ 0.5 µg/mL
B1 (coatomer subunit beta', human) — log2 fold change (PP6C (human); co-immunoprecipitation, IP-MS; CYB5R4 knockout cells; concentration not given; reference: CYB5R4 knockout over parental): -1.37
MMS21 (Saccharomyces cerevisiae, UniProt P38632) — interaction screen (SMC6; cross-linking MS; hits only): cross-linked
IFT81 (Homo sapiens, UniProt Q8WYA0) — interaction screen (IFT74 (Homo sapiens, UniProt Q96LB3); cross-linking MS; hits only): cross-linked
B2 — log2 fold change (PP6C (human); co-immunoprecipitation, IP-MS; CYB5R4 knockout cells; concentration not given; reference: CYB5R4 knockout over parental): -0.17
Histone H2B type 1-C/E/F/G/I (Homo sapiens, UniProt P62807) — interaction screen (CBX8; cross-linking MS; hits only): cross-linked
ORC2 (Saccharomyces cerevisiae, UniProt P32833) — interaction screen (ORC5 (Saccharomyces cerevisiae, UniProt P50874); cross-linking MS; hits only): cross-linked
SLC25A6 (Homo sapiens, UniProt P12236) — interaction screen (H2BC5 (Homo sapiens, UniProt P58876); cross-linking MS; hits only): cross-linked
BMI1 (Homo sapiens, UniProt P35226) — interaction screen (CBX8; cross-linking MS; hits only): cross-linked
MYH9 (Homo sapiens, UniProt P35579) — interaction screen (PSMD1 (Homo sapiens, UniProt Q99460); cross-linking MS; hits only): cross-linked
NSE1 (Saccharomyces cerevisiae, UniProt Q07913) — interaction screen (SMC6; cross-linking MS; hits only): cross-linked
H2BC18 (Homo sapiens, UniProt Q5QNW6) — interaction screen (H2BC9 (Homo sapiens, UniProt Q93079); cross-linking MS; hits only): cross-linked
KRE29 (Saccharomyces cerevisiae, UniProt P40026) — interaction screen (NSE5 (Saccharomyces cerevisiae, UniProt Q03718); cross-linking MS; hits only): cross-linked
HTA1 (Saccharomyces cerevisiae, UniProt P04911) — interaction screen (HHT1 (Saccharomyces cerevisiae, UniProt P61830); cross-linking MS; hits only): cross-linked

A few entries again:
KRE29 (Saccharomyces cerevisiae, UniProt P40026) — interaction screen (NSE5 (Saccharomyces cerevisiae, UniProt Q03718); cross-linking MS; hits only): cross-linked
